Experimental data of several laboratories.
± gives the spread as reported.

CCCC[C@H](NC(=O)CCCCCCCNC(=O)CN1CCN(CC(=O)O)CCN(CC(=O)O)CC1)C(=O)N[C@H]1CC(=O)NCCCC[C@@H](C(N)=O)NC(=O)[C@H](Cc2c[nH]c3ccccc23)NC(=O)[C@H](CCCNC(=N)N)NC(=O)[C@@H](Cc2ccccc2)NC(=O)[C@H](Cc2c[nH]cn2)NC1=O [copper-64 labelled] gave a tissue uptake of 0.2 ± 0.18 %ID/g (C57 mice, pancreas; intravenous, 0.37 MBq, 2 h).
Under “patients with toxicity”, Cc1cc(-c2ccc(NC(=O)[C@H](CCCCNC(=O)CCOCCOCCC(=O)N[C@H](Cc3ccccc3)C(=O)N[C@H]3CSSC[C@@H](C(=O)N[C@H](C(=O)O)[C@@H](C)O)NC(=O)[C@H]([C@@H](C)O)NC(=O)[C@H](CCCCN)NC(=O)[C@@H](Cc4c[nH]c5ccccc45)NC(=O)[C@H](Cc4ccc(O)cc4)NC3=O)NC(=O)CN3CCN(CC(=O)O)CCN(CC(=O)O)CCN(CC(=O)O)CC3)c(C)c2)ccc1N=Nc1ccc2c(S(=O)(=O)O)cc(S(=O)(=O)O)c(N)c2c1O [lutetium-177 labelled] is recorded as 25% (refers to: grade 3/4 haematologic toxicity; patients with metastatic neuroendocrine tumours; dose not given).
The metabolite share of CC(C)C[C@H](NC(=O)C[C@H](O)[C@H](CC(C)C)NC(=O)[C@H](Cc1c[nH]cn1)NC(=O)CNC(=O)[C@@H](NC(=O)[C@H](C)NC(=O)[C@H](Cc1c[nH]c2ccccc12)NC(=O)[C@H](CCC(N)=O)NC(=O)[C@@H](Cc1ccccc1)NC(=O)CCOCCOCCOCCNC(=O)CN1CCN(CC(=O)O)CCN(CC(=O)O)CC1)C(C)C)C(N)=O [gallium-68 labelled] is reported as 19.4% (radio-HPLC; fetal bovine serum; 120 min, 37 °C).
N=C(N)NCCC[C@@H]1NC(=O)[C@H](CCCCNC(=O)CNC(=O)CNC(=O)CNC(=O)CC[C@H](NC(=O)CNC(=O)CNC(=O)CNC(=O)CN2CCN(CC(=O)O)CCN(CC(=O)O)CCN(CC(=O)O)CC2)C(=O)NCC(=O)NCC(=O)NCC(=O)NCCCC[C@@H]2NC(=O)[C@@H](Cc3ccccc3)NC(=O)[C@H](CC(=O)O)NC(=O)CNC(=O)[C@H](CCCNC(=N)N)NC2=O)NC(=O)[C@@H](Cc2ccccc2)NC(=O)[C@H](CC(=O)O)NC(=O)CNC1=O [indium-111 labelled] has a tissue uptake of 0.09 %ID/g (female athymic nu/nu mice, blood; intravenous, 4 h).
COc1ccc2cc([C@H](C)C(=O)N[C@H](Cc3ccccc3)C(=O)N[C@H](Cc3ccccc3)C(=O)N[C@H](CCCCN)C(=O)N[C@H](Cc3ccc(O)cc3)C(=O)O)ccc2c1 gave a cumulative release of 19.8% (hydrogel 0.8 wt% into PBS; 24 h, pH 7.4, 37 °C).
For C=C1CC[C@H](OCCCNC(=O)CCOCCOCCOCCOCCOCCOCCOCCOCCOCCOCCOCCOCCOCCOCCOCCOCCOCCOCCOCCOCCOCCOCCOCCOCCOCCOCCOCCOCCOCCOCCOCCOCCOCCOCCOCCOCCNC(=O)CCN2C(=O)CC(SC[C@H](NC(=O)[C@H](Cc3ccccc3)NC(=O)[C@H](CC(N)=O)NC(=O)[C@H](Cc3c[nH]cn3)NC(=O)[C@@H](NC(=O)[C@H](CC(=O)O)NC(=O)[C@H](CCC(N)=O)NC(=O)[C@H](CC(C)C)NC(=O)[C@H](CCCCN)NC(=O)[C@H](CCCCN)NC(=O)[C@H](CCCNC(=N)N)NC(=O)[C@H](CC(C)C)NC(=O)[C@H](Cc3c[nH]c4ccccc34)NC(=O)[C@H](CCC(=O)O)NC(=O)[C@@H](NC(=O)[C@H](CCCNC(=N)N)NC(=O)[C@H](CCC(=O)O)NC(=O)[C@H](CCSC)NC(=O)[C@H](CO)NC(=O)[C@H](CC(N)=O)NC(=O)[C@H](CC(C)C)NC(=O)[C@H](Cc3c[nH]cn3)NC(=O)[C@H](CCCCN)NC(=O)CNC(=O)[C@H](CC(C)C)NC(=O)[C@H](CC(N)=O)NC(=O)[C@H](Cc3c[nH]cn3)NC(=O)[C@H](CCSC)NC(=O)[C@H](CC(C)C)NC(=O)[C@H](CCC(N)=O)NC(=O)[C@@H](NC(=O)[C@H](CCC(=O)O)NC(=O)[C@H](CO)NC(=O)[C@@H](NC(=O)[C@@H](N)CO)C(C)C)[C@@H](C)CC)C(C)C)C(C)C)C(N)=O)C2=O)C/C1=C/C=C1\CCC[C@]2(C)[C@@H]([C@H](C)CCCC(C)(C)O)CC[C@@H]12 (stereo partly drawn), the dose-normalised Cmax was 0.99 (cynomolgus monkey; sc, 7 µg/kg every other day, 21 days; reference: 0.7 µg/kg dose).
CC(C)C[C@@H](NC(=O)[C@@H](CCC(=O)O)NC(=O)[C@@H](CC(C)C)NC(=O)[C@@H](CC(C)C)NC(=O)[C@@H](CC(C)C)NC(=O)[C@H](NC(=O)[C@@H](CCC(=O)O)NC(=O)[C@H](NC(=O)[C@H]1CCCN1C(=O)[C@@H](Cc1ccccc1)NC(=O)[C@@H](CC(C)C)NC(=O)[C@@H](Cc1c[nH]c2ccccc12)NC(=O)[C@@H](CCC(=O)O)NC(=O)[C@@H](CC(C)C)NC(=O)[C@@H](Cc1ccc(O)cc1)NC(=O)[C@@H](CCCNC(=N)N)NC(=O)[C@@H](C)NC(=O)[C@@H](Cc1c[nH]c2ccccc12)NC(=O)[C@H]1CCCN1C(=O)[C@@H](CC(N)=O)NC(=O)[C@@H](CCC(N)=O)NC(=O)[C@@H](CCC(=O)O)NC(=O)[C@@H](CCC(=O)O)NC(=O)[C@@H](CS)NC(=O)[C@@H](C)NC(=S)Nc1ccc(CC2CN(CC(=O)O)CCN(CC(=O)O)CCN2CC(=O)O)cc1)[C@H](C)O)[C@H](C)O)C(=O)O (stereo partly drawn) [copper-64 labelled] — result for “kidney-to-large intestine ratio”: 0.32 ± 0.07 (female BALB/c mice, 4T1 orthotopic tumour; intravenous, 2 h; reference: kidney over large intestine).
For CCCC[C@H](NC(=O)CNC(=O)CNC(=O)CN1CCN(CC(=O)O)CCN(CC(=O)O)CC1)C(=O)N[C@H]1CC(=O)NCCCC[C@@H](C(N)=O)NC(=O)[C@H](Cc2c[nH]c3ccccc23)NC(=O)[C@H](CCCNC(=N)N)NC(=O)[C@@H](Cc2ccccc2)NC(=O)[C@H](Cc2c[nH]cn2)NC1=O [technetium-99m labelled], the tissue uptake was 0.01 ± 0.01 %ID/g (C57 mouse, pancreas; iv, 0.037 MBq, 4 h).
N=C(N)NCCC[C@@H]1NC(=O)[C@H](CCCCNC(=O)CNC(=O)CNC(=O)CNC(=O)CC[C@H](NC(=O)CNC(=O)CNC(=O)CNC(=O)CC[C@H](NC(=O)CN2CCN(CC(=O)O)CCN(CC(=O)O)CCN(CC(=O)O)CC2)C(=O)NCC(=O)NCC(=O)NCC(=O)N[C@@H](CCC(=O)NCC(=O)NCC(=O)NCC(=O)NCCCC[C@@H]2NC(=O)[C@@H](Cc3ccccc3)NC(=O)[C@H](CC(=O)O)NC(=O)CNC(=O)[C@H](CCCNC(=N)N)NC2=O)C(=O)NCC(=O)NCC(=O)NCC(=O)NCCCC[C@@H]2NC(=O)[C@@H](Cc3ccccc3)NC(=O)[C@H](CC(=O)O)NC(=O)CNC(=O)[C@H](CCCNC(=N)N)NC2=O)C(=O)NCC(=O)NCC(=O)NCC(=O)NCCCC[C@@H]2NC(=O)[C@@H](Cc3ccccc3)NC(=O)[C@H](CC(=O)O)NC(=O)CNC(=O)[C@H](CCCNC(=N)N)NC2=O)NC(=O)[C@@H](Cc2ccccc2)NC(=O)[C@H](CC(=O)O)NC(=O)CNC1=O [indium-111 labelled] gave a tissue uptake of 8.35 ± 0.52 %ID/g (female athymic nu/nu mice, kidney; intravenous, 0.5 h).
CC(C)C[C@@H](NC(=O)[C@@H](CC(C)C)NC(=O)[C@@H](CC(=O)O)NC(=O)[C@@H](CC(C)C)NC(=O)[C@@H](CC(C)C)NC(=O)[C@@H](CC(C)C)NC(=O)[C@H](NC(=O)[C@@H](CC(=O)O)NC(=O)[C@H](NC(=O)[C@H]1CCCN1C(=O)[C@@H](Cc1ccccc1)NC(=O)[C@@H](CC(C)C)NC(=O)[C@@H](CC(C)C)NC(=O)[C@@H](CC(=O)O)NC(=O)[C@@H](CC(C)C)NC(=O)[C@@H](Cc1ccc(O)cc1)NC(=O)[C@@H](C)NC(=O)[C@@H](CCCNC(=N)N)NC(=O)[C@@H](Cc1c[nH]c2ccccc12)NC(=O)[C@H]1CCCN1C(=O)[C@@H](CC(N)=O)NC(=O)[C@@H](CCC(N)=O)NC(=O)[C@@H](CC(=O)O)NC(=O)[C@@H](CC(=O)O)NC(=O)[C@@H](CSC1CC(=O)N(CCNC(=O)CN2CCN(CC(=O)O)CCN(CC(=O)O)CC2)C1=O)NC(=O)[C@@H](C)N)[C@H](C)O)[C@H](C)O)C(=O)N[C@H](Cc1c[nH]c2ccccc12)C(=O)O (stereo partly drawn) [copper-64 labelled] gave a tumour-to-bone ratio of 2.7 ± 0.6 (male nude mice, PC-3 xenograft; intravenous, 4 h; reference: tumour over bone).
CCCC[C@H](NC(=O)COCCOCCNC(=O)CN1CCN(CC(=O)O)CCN(CC(=O)O)CC1)C(=O)N[C@H]1CC(=O)NCCCC[C@@H](C(N)=O)NC(=O)[C@H](Cc2c[nH]c3ccccc23)NC(=O)[C@H](CCCNC(=N)N)NC(=O)[C@@H](Cc2ccccc2)NC(=O)[C@H](Cc2c[nH]cn2)NC1=O [copper-64 labelled] gave a tissue uptake of 1.47 ± 0.56 %ID/g (C57 mice, kidney; intravenous, 0.37 MBq, 24 h).
N=C(N)NCCC[C@@H]1NC(=O)[C@H](CCCCNC(=O)CC[C@H](NC(=O)CC[C@H](NC(=O)CN2CCN(CC(=O)O)CCN(CC(=O)O)CCN(CC(=O)O)CC2)C(=O)N[C@@H](CCC(=O)NCCCC[C@@H]2NC(=O)[C@@H](Cc3ccccc3)NC(=O)[C@H](CC(=O)O)NC(=O)CNC(=O)[C@H](CCCNC(=N)N)NC2=O)C(=O)NCCCC[C@@H]2NC(=O)[C@@H](Cc3ccccc3)NC(=O)[C@H](CC(=O)O)NC(=O)CNC(=O)[C@H](CCCNC(=N)N)NC2=O)C(=O)NCCCC[C@@H]2NC(=O)[C@@H](Cc3ccccc3)NC(=O)[C@H](CC(=O)O)NC(=O)CNC(=O)[C@H](CCCNC(=N)N)NC2=O)NC(=O)[C@@H](Cc2ccccc2)NC(=O)[C@H](CC(=O)O)NC(=O)CNC1=O [indium-111 labelled] gave a tissue uptake of 0.12 ± 0.05 %ID/g (female athymic nu/nu mice, blood; intravenous, 4 h).

Repeated from above:
The metabolite share of CC(C)C[C@H](NC(=O)C[C@H](O)[C@H](CC(C)C)NC(=O)[C@H](Cc1c[nH]cn1)NC(=O)CNC(=O)[C@@H](NC(=O)[C@H](C)NC(=O)[C@H](Cc1c[nH]c2ccccc12)NC(=O)[C@H](CCC(N)=O)NC(=O)[C@@H](Cc1ccccc1)NC(=O)CCOCCOCCOCCNC(=O)CN1CCN(CC(=O)O)CCN(CC(=O)O)CC1)C(C)C)C(N)=O [gallium-68 labelled] is reported as 19.4% (radio-HPLC; fetal bovine serum; 120 min, 37 °C).
